Experimental data pooled from the literature.
Each numbered part is a random draw from the data of one study; scales do not carry over between parts.

Series 1
Target: Interferon regulatory factor 7, full length, phosphomimetic (IRF7, Homo sapiens, UniProt Q92985, residues 1-503, S101K/S471D/S472D/S475D/S476D/S477D/S483D/S484D/S487D)
Method: protein-binding microarray
Form: double-stranded DNA, one strand shown
Matrix: in vitro
Concentration: 250 nM
Notes: 60-bp whole probe
Together with: salmon DNA 0.4 mg/ml
Relative to: random background probes
Direction: higher = stronger binding
Shared flanks, not repeated: GCCTAGCAC … GTCTTGATTCGCTTGACGCTGCTG
Construct (chain): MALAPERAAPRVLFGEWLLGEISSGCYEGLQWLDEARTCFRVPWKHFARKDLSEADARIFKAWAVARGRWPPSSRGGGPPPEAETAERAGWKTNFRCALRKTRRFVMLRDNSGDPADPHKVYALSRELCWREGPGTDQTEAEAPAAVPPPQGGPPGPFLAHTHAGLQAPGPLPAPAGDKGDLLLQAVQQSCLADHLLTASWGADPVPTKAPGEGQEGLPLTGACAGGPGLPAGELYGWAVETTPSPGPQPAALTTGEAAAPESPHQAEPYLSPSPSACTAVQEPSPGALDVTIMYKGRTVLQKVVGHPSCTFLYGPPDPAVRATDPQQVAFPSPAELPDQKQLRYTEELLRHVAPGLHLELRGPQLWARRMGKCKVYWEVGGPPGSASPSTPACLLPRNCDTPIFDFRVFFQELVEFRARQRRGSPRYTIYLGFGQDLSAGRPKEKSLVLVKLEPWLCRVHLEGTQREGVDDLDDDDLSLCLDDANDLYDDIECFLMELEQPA
| Strand | log fluorescence |
| --- | --- |
| TTAGAACTGCGTCTCGATTAGTGCTAG | 0.118 z-score |
| TCAATCCTATATCTGAAACTGTGCTAG | 0.79 z-score |
| TTAGATATCAGTGTCGATTAGTGCTAG | -0.138 z-score |
| CACGGTCTCGGTCTCGGGACGTGCTAG | 1.1 z-score |
| TCATGGTCCTCTCTCTAACTGTGCTAG | -0.157 z-score |
| GACGATTTCAGTTTTGAGACGTGCTAG | 0.758 z-score |
| GACGGACTGCTTCTCCGGACGTGCTAG | 0.0599 z-score |
| TCATATCTCTGTTTTTGACTGTGCTAG | 0.89 z-score |
| GACGATTTCGGGTATCGAGTCGTGCTA | 1.52 z-score |
| GACGGTTTCGATTTTCGGGACGTGCTA | 13.4 z-score |
| TTGGCTTCCTCTTTCTCTGCGTGCTAG | 0.282 z-score |
| AACGGTATCGGTCTCGGGACGTGCTAG | 0.783 z-score |
| GACGGACTCGACTATCGGGACGTGCTA | -0.0288 z-score |
| TTAGATATCGGGACTGGATTAGTGCTA | -0.0025 z-score |
| TCAAGAATGTTTTTCATACTGTGCTAG | -0.0556 z-score |
| GACGAACAGAGTTTCGAGACGTGCTAG | 3.52 z-score |
| GACGGTTTCGACTTTCGGCACGTGCTA | 10.7 z-score |
| GACGATATCAATATCGAGACGTGCTAG | 0.102 z-score |
| TTAGATATCAGTTTCGATCAGTGCTAG | 3.93 z-score |
| TCATGCTTGTGTTTATTACTGTGCTAG | -0.152 z-score |
| GACGGACTGCTTTTTCTGACGTGCTAG | -0.109 z-score |
| GAAAATTAGTGTTTTGCCCTGTGCTAG | -0.0108 z-score |
| GACGGTCTCGGTCTCGGGAAGTGCTAG | 1.01 z-score |
| TCCTGTGACGTTAAGGTCTCGTGCTAG | 0.123 z-score |
| TCAGCTCTCTGGACTGTGACTGTGCTA | -0.396 z-score |

Series 2
Target: PABPC1L2, full length, GST fusion (mouse, UniProt A0ABA7IW68)
Method: RNAcompete
Form: RNA
Matrix: in vitro
Concentration: 20 nM
Notes: 7-mer, probes averaged, single round
Relative to: mean of 7-mers
Direction: higher = stronger binding
Target sequence (chain): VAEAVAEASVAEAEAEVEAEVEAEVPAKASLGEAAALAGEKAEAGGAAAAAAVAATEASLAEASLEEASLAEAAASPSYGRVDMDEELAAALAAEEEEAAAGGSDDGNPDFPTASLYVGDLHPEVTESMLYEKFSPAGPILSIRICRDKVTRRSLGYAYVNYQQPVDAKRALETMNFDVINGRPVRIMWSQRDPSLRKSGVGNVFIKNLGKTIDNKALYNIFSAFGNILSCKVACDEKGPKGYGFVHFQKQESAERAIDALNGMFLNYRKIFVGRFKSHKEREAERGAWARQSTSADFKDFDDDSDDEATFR
| Strand | 7-mer Z-score |
| --- | --- |
| GCCUGCG | -0.262 |
| GUGCGAA | 0.146 |
| AUCCCUA | -0.3 |
| CGGUUUA | -0.267 |
| CGGCUCU | -0.0881 |
| CGCCCUG | -0.284 |
| UCUCCUG | -0.494 |
| CGUGGCA | 0.0551 |
| ACUAUCC | -0.325 |
| UCGUUGU | -0.539 |
| CAGGCAA | 0.321 |
| UCAAGCA | -0.135 |
| UCUCUUA | -0.266 |
| CGCGUAU | -0.231 |
| GACAGGG | 0.146 |
| GCUAAUU | -0.171 |
| CCCCAUA | -0.322 |
| UAUUCCU | -0.338 |
| UUGCGGC | -0.24 |
| UGUACAG | -0.0826 |
| UAGCGUA | -0.0591 |

Series 3
Target: Ras GTPase-activating protein-binding protein 1, C-terminal RGG region (G3BP1, Homo sapiens, UniProt Q13283)
Sequence of UniProt Q13283 (whole entry, looked up): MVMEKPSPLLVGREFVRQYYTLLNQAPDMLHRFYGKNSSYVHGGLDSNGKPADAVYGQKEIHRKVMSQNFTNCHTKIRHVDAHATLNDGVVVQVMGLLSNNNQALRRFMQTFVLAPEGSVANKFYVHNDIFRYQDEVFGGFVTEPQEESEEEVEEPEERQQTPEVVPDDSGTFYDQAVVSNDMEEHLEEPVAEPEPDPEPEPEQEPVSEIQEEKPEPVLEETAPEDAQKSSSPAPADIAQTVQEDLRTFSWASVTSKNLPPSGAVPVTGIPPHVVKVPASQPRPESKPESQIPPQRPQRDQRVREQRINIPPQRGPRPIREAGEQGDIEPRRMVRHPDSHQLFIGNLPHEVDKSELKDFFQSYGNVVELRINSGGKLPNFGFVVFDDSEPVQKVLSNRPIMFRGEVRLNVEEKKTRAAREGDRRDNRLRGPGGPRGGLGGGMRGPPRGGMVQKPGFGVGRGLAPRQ
Method: RNA Bind-n-Seq
Form: RNA
Matrix: in vitro
Concentration: 1 µM
Notes: whole 134-nt RNA, ends assumed
Together with: 150 mM KCl
Relative to: input library
Direction: higher = stronger binding
| Strand | log2 enrichment |
| --- | --- |
| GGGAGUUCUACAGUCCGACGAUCGUCCUGUGCUACACAUCGUAUGUACCGAAUCGGGGAAAAAGGAAAAAGGGGAAAAAGGAAAGUAUUAUGUUACGCCGUUCGGAUCUGCACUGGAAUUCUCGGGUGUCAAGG | -1.21 |
| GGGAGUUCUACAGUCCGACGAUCCACAGACAACACGCACCCACACAAAAACAGAGGGAAGGGGUUGGGAUGGGGACAGGGUGCACAGCAGGGCGGGGUAGGACCCCAGCCCCUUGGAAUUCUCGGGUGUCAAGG | -0.365 |
| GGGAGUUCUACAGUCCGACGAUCAGUCCUGUGCUACACAUCGUAUGUACCGAAUCGGUUUUUGGGGUUUUUGGGUUUUUGGAAAGUAUUAUGUUACGCCGUUCGGAUCUGCACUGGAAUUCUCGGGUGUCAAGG | -1.1 |
| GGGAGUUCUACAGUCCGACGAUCCCUGUGCUACACAUCGUAUGUACCGAAUCGGGAAAAAAAGGAAAAAAAGGAAAAAAAGGGAAAGUAUUAUGUUACGCCGUUCGGAUCUGCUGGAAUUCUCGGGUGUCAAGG | -1.99 |
| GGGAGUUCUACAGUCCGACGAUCUCAAGUCCUGUGCUACACAUCGUAUGUACCGAAUCGGUUUGGUUUUUGGAAAGGAAAGUAUUAUGUUACGCCGUUCGGAUCUGCACUUCCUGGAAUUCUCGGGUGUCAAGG | -1.26 |
| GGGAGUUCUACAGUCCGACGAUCCAAGUCCUGUGCUACACAUCGUAUGUACCGAAUCGGAAAAAGGUGGAAAAAAAGGAAAGUAUUAUGUUACGCCGUUCGGAUCUGCACUUCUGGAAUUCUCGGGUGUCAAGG | -1.91 |
| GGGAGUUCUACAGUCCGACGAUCUUAUCACCAGGACUGCCAUGUUCCCAGGGCUCCAGCCCCUGGAGAGGGAGAGGGCACAUCCUGGGUAUGCCGCCAGUGUGUCUUUGCGAUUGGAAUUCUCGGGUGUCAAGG | -1.15 |
| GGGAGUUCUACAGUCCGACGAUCUGGCCCUGGUGGCAUGCGGGGAGGAAGAGGUGGCUUCAUGGAUCGUGGUGGUCCCGGUGGAAUGUUCAGAGGUGGCCGUGGUGGAGACAGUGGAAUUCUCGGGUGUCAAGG | 2.14 |
| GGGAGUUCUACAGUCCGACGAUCUCAAGUCCUGUGCUACACAUCGUAUGUACCGAAUCGGGGUGGGGAGGGGUGGGGAAAGUAUUAUGUUACGCCGUUCGGAUCUGCACUUCCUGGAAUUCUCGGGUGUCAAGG | 2.71 |
| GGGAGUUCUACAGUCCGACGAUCCCUCAAGUCCUGUGCUACACAUCGUAUGUACCGAAUCGGAAGGAAGGAAGGGGAAAGUAUUAUGUUACGCCGUUCGGAUCUGCACUUCCAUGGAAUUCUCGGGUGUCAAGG | -1.36 |

Series 4
Target: RNA binding protein fox-1 homolog 2, RRM domain, GST-SBP tag (RBFOX2, Homo sapiens, UniProt O43251-10, residues 100-194)
Method: RNA Bind-n-Seq
Form: RNA
Matrix: in vitro
Concentration: 365 nM
Notes: natural RNA segment, single round, ends assumed
Relative to: no-protein control
Direction: higher = stronger binding
Target sequence (chain): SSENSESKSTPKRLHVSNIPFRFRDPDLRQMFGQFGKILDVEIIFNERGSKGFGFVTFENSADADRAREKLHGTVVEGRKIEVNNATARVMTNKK
| Strand | RBNS enrichment (R) |
| --- | --- |
| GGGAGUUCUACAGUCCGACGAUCUCUGUUCAAAUGCAUUGAGAGACAUGACCUCAGAAUACCUAGUGUGAACAUUCUAAGUUGUACUGUUCUUAACAGACAUGAAAGAUCUCAGGUAAAUAAAAAAAAUUUUAUGGAAUUCUCGGGUGCCAA | 0.542 |
| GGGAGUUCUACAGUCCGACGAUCGCAUUGUGAGUUGGGGUGAUGCCUGUGGUGCCCCCAACAGGCCUGGAGUAUACACUCUGACUUCUACCUAUGCUUCCUGGAUCCACCACCAUGUGGCAGAGCUCCAGCCUUGGAAUUCUCGGGUGCCAA | 0.278 |
| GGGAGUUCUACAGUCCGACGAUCGAGGAAUGGAGCUUGUUUCUGUGACCCAGGAGAACUUAGUGCAAGACUACAGGAGUUAACAGAUGGCCAGCUCCUUAUUUUUUAAUGUAGAAUAACUCCUGAGUUUAUAUUGGAAUUCUCGGGUGCCAA | 0.425 |
| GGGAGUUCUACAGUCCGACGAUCGGCAUUUCUUUAUGGAUGGAAUUGGAACAUGAACAAGACCAUGUCCAGCGUUUUUACUGUGAAUGUAAAUGGAACAGCAGCCCAAAGCUGUUGUCUGUGCCCCAGAGGUGUGGAAUUCUCGGGUGCCAA | 0.309 |
| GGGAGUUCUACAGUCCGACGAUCCCGGACCUCAGCGUGGGGGAGCCUCCAGGCAGACGCUGGGUAUGGAGCUGUGGUGUGGUCUGUCCUGUAUGGUGGCCAGUGCUUUCUGCCAGCAUUUCUGGAUGGAUAUAUGGAAUUCUCGGGUGCCAA | 0.352 |
| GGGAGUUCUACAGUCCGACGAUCUUUCACAACAAGGAGAAGCCACAGUUUGUGGCAUCCUAUAGUUUUACAUUGUGUAUUUCUUCCUUUUAGGAAAAACCUACCUAGUACAAGCUACCACGUGCACAGACAGCUGGAAUUCUCGGGUGCCAA | 0.271 |
| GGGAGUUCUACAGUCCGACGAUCCACCCCUUUAUCGCAUUGCUGUCCUUGGGUAGAAUAUAAAAUAAAGGGACUUUUAUUUCUUAUUGGAGACCUUUGUCAUUCUUUUUGACUACCCAGCAUCUGAGGGAAUUUGGAAUUCUCGGGUGCCAA | 0.486 |
| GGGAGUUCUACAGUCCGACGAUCAUAUAUUCCUGUUUAUUUUUCUAUGUUCUGUUUUGUAGCCUUAAGAAGUGUUUCAAACAUAUCUGAAUGUAUAAAAUAAGAGUAAAUGCCCUACAUGGUGUGAUGCUGCAUGGAAUUCUCGGGUGCCAA | 0.389 |
| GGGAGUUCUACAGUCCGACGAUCCCAUGCCACCACUUGGGUUUUUUCCAUGGGAAGCAGCCUGCUGGGUGUGCAAGGCCGAGUGAUGGCUGAUCAAUCAAAGCCGUGGUCUAGGACCAGCUCCCACGUGCCAUUGGAAUUCUCGGGUGCCAA | 0.305 |
| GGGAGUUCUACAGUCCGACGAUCUUGCUAUAUUGACAGAUUCUUGCCUGUCUGUGUUAUUCUAGGAUCUGUUACAGGUCCAUGGCAAUUACUGUUUAUUUUUUCCUGGAAAAAUAUUUUUUUAUAAAAGGCUUUGGAAUUCUCGGGUGCCAA | 0.729 |
| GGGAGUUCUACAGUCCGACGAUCCCAUGUUUUCCUAUUCAUCUUAGUUCAUUUAGGGAUAGUCUGGGUUUCCCAGAAAAUGUGGAGCCAGAGAGAAACAGGCGGACGUGUGUUAGUUACCACGAUGGUGUUUAUGGAAUUCUCGGGUGCCAA | 0.472 |
| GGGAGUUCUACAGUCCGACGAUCUCAAAAUUCCACAGUAAUUAAAAUUUGAAUUUUUACCGAAUAUGAAAUUUCCAAAUUAAAAACGUAUAUGUGUACUCUUUUAAAAAGGAAUUUGAUAGUUCUUGUCAAAUUGGAAUUCUCGGGUGCCAA | 0.637 |

A few entries again (series 2):
| Strand | 7-mer Z-score |
| --- | --- |
| CGGCUCU | -0.0881 |
| CGCCCUG | -0.284 |
| UCUCCUG | -0.494 |
| CGUGGCA | 0.0551 |
| ACUAUCC | -0.325 |
| UCGUUGU | -0.539 |
| CAGGCAA | 0.321 |
| UCAAGCA | -0.135 |
| UCUCUUA | -0.266 |
| CGCGUAU | -0.231 |
| GACAGGG | 0.146 |
